Results gathered from unrelated publications.
Each line is one published result; not all experiments were run side by side. Several values in a cell are separate wells, animals, samples, runs or records. Numbers after ± are the reported error.

SMILES | assay | test system | setting | how to read | measurement | value
Cc1c(C(=O)O)ccc2c3n(nc12)[C@@H]1[C@H](C3)N(CC2CC2)[C@@]2(C(=O)Nc3cc(Cl)ccc32)[C@H]1c1cccc(Cl)c1F | – | mice, orthotopic PDX, MDM2-amplified | weekly, 2 mg/kg, for 12 weeks | – | median survival | 50 days
Cc1nc(Nc2ccc(CC(=O)O)cc2)nc(Nc2ccc(F)c(C(F)(F)F)c2)c1C | – | C57BL/6J mice, high-fat diet, brown adipose tissue | intraperitoneal, 0.3 mg/kg daily, 60% fat diet 12 weeks, dosed last four | reference: vehicle | UCP1-positive area | increased
C=CC(=O)Nc1cc(Nc2ncc(Cl)c(Nc3ccccc3C(=O)C(=O)N(C)C)n2)c(OC)cc1N1CCN(C)CC1 | RECIST v1.1 best response | human EGFR T790M NSCLC | oral, 50 mg/day, per-protocol set | – | patients with partial response | 0%
CC[C@H](C)[C@@H]1NC(=O)[C@@H]2CCCN2C(=O)[C@H](CC(C)C)NC(=O)[C@H](CC(C)C)NC(=O)CNC(=O)[C@@H](NC(=O)[C@@H](NC(=O)[C@H](CC(=O)O)NC(=O)CNC(=O)[C@@H](NC(=O)[C@H](C)NC(=O)CNC(=O)[C@H](CCCCN)NC(=O)[C@H](CC(C)C)NC(=O)[C@H](CC(C)C)NC(=O)[C@H](CCCCN)NC(=O)CNC(=O)[C@@H](NC(=O)[C@@H](N)CC(C)C)C(C)C)C(C)C)C(C)C)CSSC[C@@H](C(=O)O)NC1=O | RNA-seq, measured: Pilrb2 mRNA | mouse traumatic brain injury, frontal cortex and hippocampus | dose not given | reference: TBI plus compound vs TBI | log2 fold change | -3.15
COc1ccc([C@@H](O)c2cc(-c3ncnc4cc(N5CCOCC5)ccc34)c(F)cc2Cl)nn1 | – | mouse, orthotopic M15 xenograft | 125 mg/kg, added: radiotherapy | – | median survival | 36 days
Cc1cn(-c2cc(NC(=O)c3ccc(C)c(Nc4nccc(-c5cccnc5)n4)c3)cc(C(F)(F)F)c2)cn1 | – | human patients | dose not given, 6 months vs baseline, unit not given | reference: placebo | ADAS-Cog maze errors change | 0
O=C(O)/C=C/C(=O)O.Oc1cccc2[nH]cc(CCNCc3ccccc3)c12 | – | C57BL/6J mice | subcutaneous, 1 mg/kg, 30 min | – | distance travelled | 2480 ± 237 cm
CC(C)C[C@H](NC(=O)[C@H](CCC1CCCCC1)NC(=O)[C@@H]1CCCN1C(=O)c1ccc(F)cc1)C(=O)NC(C)(C)C(=O)N[C@@H](CC(C)C)C(=O)N[C@@H](CC(C)C)C(=O)NC(C)(C)C(=O)NC(C)(C)C(=O)NCCC(=O)NCCN(C)CC(F)F | – | small unilamellar vesicles | concentration not given | – | calcein leakage | 4.45%
C[C@]1(CO)Cc2ncn(-c3ccc(C#N)c(Cl)c3)c2C(=O)O1 | – | Chinese subjects | 20 mg single dose | – | urinary potassium excretion 0-24 h | 33.8 mmol
N.N.[Cl][Pt][Cl] | – | SAS xenograft, KSN/Slc nude mice | dose not given, day 6, group mean | – | tumour volume | 195 mm3
CC(C)[C@@H](CS(=O)(=O)C(C)C)N1C(=O)[C@@](C)(CC(=O)O)C[C@H](c2cccc(Cl)c2)[C@H]1c1ccc(Cl)cc1 | – | mouse, subcutaneous PDX | 25 mg/kg, 4 weeks | reference: vehicle | median survival extension | > 5 fold
c1ccc2c(c1)Nc1ccccc1S2 | – | CT26 tumour-bearing mice | intraperitoneal, 100 mg/kg equivalents daily, day 5 | – | tumour volume | 647 mm³
CCCCC1(CCCC)CN(c2ccccc2)c2cc(SC)c(OCC(=O)N[C@@H](C(=O)NCC(=O)O)c3ccccc3)cc2S(=O)(=O)C1 | measured: HDL cholesterol | human, serum | 15 mg once daily, day 7 | – | serum HDL-C | 44.5 mg/dL
CCCCCN1C[C@H](O)[C@@H](O)[C@H](O)[C@@H]1CO | – | Hexb-/- mice, female | 300 mg/kg/day | – | median survival | 156 days
C[C@@H]1N=C(c2ccccc2F)c2cc(Br)ccc2-n2cnc(C(=O)O)c21 | – | guinea pig tracheal rings | added: substance P contraction | – | relaxation time | ≤ 30 min
Cn1ncc(-c2nc(N[C@H]3CC[C@H](N)CC3)ncc2Cl)c1CC1CC1 | phase I clinical trial | R/R AML or high-risk MDS patients | dose not given, intent-to-treat | – | CRi rate | 10%
C[C@H]1O[C@@H](O[C@H]2CC[C@@]3(C)[C@@H](CC[C@]4(C)[C@@H]3C=C[C@]35OC[C@@]6(CCC(C)(C)C[C@H]63)[C@@H](O)C[C@]54C)[C@]2(C)CO)[C@H](O)[C@@H](O[C@@H]2O[C@H](CO)[C@@H](O)[C@H](O)[C@H]2O)[C@H]1O | – | mouse, ethanol-fed, AAV8-TBG-Null, plasma | dose not given, high dose | – | AST/ALT ratio | 2.73 and 1.43 and 2.47 and 2.34 and 1.74 and 2.43
C[C@]1(O)CC[C@@]2(C)[C@@H](CC[C@@H]3[C@@H]2CC[C@]2(C)[C@@H]([N+](=O)[O-])CC[C@@H]32)C1 | protection against pentylenetetrazol seizures | male NIH Swiss mice | intraperitoneal, 15 min before test, added: pentylenetetrazol 80 mg/kg s.c. | – | ED50 | > 100 mg/kg
C=CC(=O)N[C@H]1C=C(C)c2c(-c3cnc4ccccc4c3)c3c(N)ncnc3n2C1 | – | NCI-H2073 EGFR SVD knock-in xenograft, BALB/c nude mice | 100 mg/kg once daily, 21 days | – | tumour growth inhibition | 79.7%
CCCCC/C=C\C/C=C\C/C=C\C/C=C\CCCC(=O)NCCO | – | mouse, formalin paw test | intraperitoneal, 5 mg/kg, 5 min after formalin, late phase | direction not given | licking score | 12
CN1CCN(S(=O)(=O)c2cc([N+](=O)[O-])ccc2N(CCOS(C)(=O)=O)CCOS(C)(=O)=O)CC1 | – | NSG mice, sample BI PDX | intraperitoneal, 25 mg/kg weekly x3 | – | event-free survival | 40.3 days
